Measured values collected from several papers.
Protocols differ between the studies behind these lines. ± marks the error that the study gave.

With `CCCC[C@H](NC(=O)CNC(=O)CNC(=O)CN1CCN(CC(=O)O)CCN(CC(=O)O)CC1)C(=O)N[C@H]1CC(=O)NCCCC[C@@H](C(N)=O)NC(=O)[C@H](Cc2c[nH]c3ccccc23)NC(=O)[C@H](CCCNC(=N)N)NC(=O)[C@@H](Cc2ccccc2)NC(=O)[C@H](Cc2c[nH]cn2)NC1=O` [technetium-99m labelled] the tissue uptake was 0.82 ± 0.41 %ID/g (C57 mouse, bone; iv, 0.037 MBq, 0.5 h).
`Cc1cc(-c2ccc(NC(=O)[C@H](CCCCNC(=O)CCOCCOCCC(=O)N[C@H](Cc3ccccc3)C(=O)N[C@H]3CSSC[C@@H](C(=O)N[C@H](C(=O)O)[C@@H](C)O)NC(=O)[C@H]([C@@H](C)O)NC(=O)[C@H](CCCCN)NC(=O)[C@@H](Cc4c[nH]c5ccccc45)NC(=O)[C@H](Cc4ccc(O)cc4)NC3=O)NC(=O)CN3CCN(CC(=O)O)CCN(CC(=O)O)CCN(CC(=O)O)CC3)c(C)c2)ccc1N=Nc1ccc2c(S(=O)(=O)O)cc(S(=O)(=O)O)c(N)c2c1O` [lutetium-177 labelled] — result for “grade 1-2 haematologic adverse events”: 58% (human metastatic neuroendocrine tumour; dose not given).
`N=C(N)NCCC[C@@H]1NC(=O)[C@H](CCCCNC(=O)CC[C@H](NC(=O)CC[C@H](NC(=O)CN2CCN(CC(=O)O)CCN(CC(=O)O)CCN(CC(=O)O)CC2)C(=O)N[C@@H](CCC(=O)NCCCC[C@@H]2NC(=O)[C@@H](Cc3ccccc3)NC(=O)[C@H](CC(=O)O)NC(=O)CNC(=O)[C@H](CCCNC(=N)N)NC2=O)C(=O)NCCCC[C@@H]2NC(=O)[C@@H](Cc3ccccc3)NC(=O)[C@H](CC(=O)O)NC(=O)CNC(=O)[C@H](CCCNC(=N)N)NC2=O)C(=O)NCCCC[C@@H]2NC(=O)[C@@H](Cc3ccccc3)NC(=O)[C@H](CC(=O)O)NC(=O)CNC(=O)[C@H](CCCNC(=N)N)NC2=O)NC(=O)[C@@H](Cc2ccccc2)NC(=O)[C@H](CC(=O)O)NC(=O)CNC1=O` [indium-111 labelled] gave a tissue uptake of 11.2 ± 1.22 %ID/g (female athymic nu/nu mice, kidney; intravenous, 0.5 h).
For `CCCC[C@H](NC(=O)CCCCCCCNC(=O)CN1CCN(CC(=O)O)CCN(CC(=O)O)CC1)C(=O)N[C@H]1CC(=O)NCCCC[C@@H](C(N)=O)NC(=O)[C@H](Cc2c[nH]c3ccccc23)NC(=O)[C@H](CCCNC(=N)N)NC(=O)[C@@H](Cc2ccccc2)NC(=O)[C@H](Cc2c[nH]cn2)NC1=O` [copper-64 labelled], the tissue uptake was 0.17 ± 0.12 %ID/g (C57 mice, spleen; intravenous, 0.37 MBq, 2 h).
`C[C@H](NC(=O)CNC(=O)[C@H](CCC(=O)O)NC(=O)[C@H](CCC(=O)O)NC(=O)[C@H](CC(=O)O)NC(=O)[C@@H]1CCCN1C(=O)[C@H](Cc1ccccc1)NC(=O)[C@H](CS)NC(=O)[C@H](Cc1ccc(O)cc1)NC(=O)CCCNC(=O)CNC(=O)CNC(=O)[C@@H](C)NC(=O)CN)C(=O)N[C@@H](CS)C(=O)N[C@@H](Cc1ccc(O)cc1)C(N)=O` [technetium-99m labelled] gave a radiochemical purity of 97.39 ± 0.23% (paper chromatography; sealed vial; 0 h, room temperature).
With `CCCC[C@H](NC(=O)CNC(=O)CNC(=O)CN1CCN(CC(=O)O)CCN(CC(=O)O)CCN(CC(=O)O)CC1)C(=O)N[C@H]1CC(=O)NCCCC[C@@H](C(N)=O)NC(=O)[C@H](Cc2c[nH]c3ccccc23)NC(=O)[C@H](CCCNC(=N)N)NC(=O)[C@@H](Cc2ccccc2)NC(=O)[C@H](Cc2c[nH]cn2)NC1=O` [lutetium-177 labelled] the tissue uptake was 0.23 ± 0.41 %ID/g (C57 mouse, female, whole blood; intravenous, 0.037 MBq, 24 h).
`N=C(N)NCCC[C@@H]1NC(=O)[C@H](CCCCNC(=O)CNC(=O)CNC(=O)CNC(=O)CC[C@H](NC(=O)CNC(=O)CNC(=O)CNC(=O)CC[C@H](NC(=O)CN2CCN(CC(=O)O)CCN(CC(=O)O)CCN(CC(=O)O)CC2)C(=O)NCC(=O)NCC(=O)NCC(=O)N[C@@H](CCC(=O)NCC(=O)NCC(=O)NCC(=O)NCCCC[C@@H]2NC(=O)[C@@H](Cc3ccccc3)NC(=O)[C@H](CC(=O)O)NC(=O)CNC(=O)[C@H](CCCNC(=N)N)NC2=O)C(=O)NCC(=O)NCC(=O)NCC(=O)NCCCC[C@@H]2NC(=O)[C@@H](Cc3ccccc3)NC(=O)[C@H](CC(=O)O)NC(=O)CNC(=O)[C@H](CCCNC(=N)N)NC2=O)C(=O)NCC(=O)NCC(=O)NCC(=O)NCCCC[C@@H]2NC(=O)[C@@H](Cc3ccccc3)NC(=O)[C@H](CC(=O)O)NC(=O)CNC(=O)[C@H](CCCNC(=N)N)NC2=O)NC(=O)[C@@H](Cc2ccccc2)NC(=O)[C@H](CC(=O)O)NC(=O)CNC1=O` [indium-111 labelled] gave a tissue uptake of 10.9 ± 1.94 %ID/g (female athymic nu/nu mice, intestine; intravenous, 24 h).
With `COc1ccc2cc([C@H](C)C(=O)NCCCC[C@@H](NC(=O)[C@@H](Cc3ccccc3)NC(=O)[C@H](N)Cc3ccccc3)C(=O)N[C@H](Cc3ccc(O)cc3)C(=O)O)ccc2c1` the nanofiber width was 7 ± 2 nm (TEM; hydrogel 0.8 wt%).
With `CC(C)C[C@@H]1NC(=O)[C@H]([C@@H](C)O)NC(=O)[C@H](Cc2ccccc2)NC(=O)CNC(=O)[C@H](Cc2c[nH]c3ccccc23)NC(=O)[C@H](Cc2c[nH]cn2)NC(=O)[C@H](C)NC(=O)[C@@H](NC(=O)[C@H](CCCCNC(=O)CCCCCN2C(=CC=C3CCCC(C=CC4=[N+](CCCCS(=O)(=O)[O-])c5ccc(S(=O)(=O)O)cc5C4(C)C)=C3Oc3ccc(S(=O)(=O)O)cc3)C(C)(C)c3cc(S(=O)(=O)O)ccc32)NC(=O)CN2CCN(CC(=O)O)CCN(CC(=O)O)CCN(CC(=O)O)CC2)CCCCNC(=O)C[C@@H](C(N)=O)NC1=O` [gallium-68 labelled] the radiochemical purity was > 95% (radio-HPLC; PBS; 3 h, room temperature).
`CCCC[C@H](NC(=O)COCCOCCNC(=O)CN1CCN(CC(=O)O)CCN(CC(=O)O)CC1)C(=O)N[C@H]1CC(=O)NCCCC[C@@H](C(N)=O)NC(=O)[C@H](Cc2c[nH]c3ccccc23)NC(=O)[C@H](CCCNC(=N)N)NC(=O)[C@@H](Cc2ccccc2)NC(=O)[C@H](Cc2c[nH]cn2)NC1=O` [copper-64 labelled] has a tissue uptake of 0.17 ± 0.05 %ID/g (C57 mice, heart; intravenous, 0.37 MBq, 24 h).
`N=C(N)NCCC[C@@H]1NC(=O)[C@H](CCCCNC(=O)CC[C@H](NC(=O)COCCOCCOCCNC(=S)Nc2ccc(C[C@H]3CN(CC(=O)O)CCN(CC(=O)O)CCN3CC(=O)O)cc2)C(=O)NCCCC[C@@H]2NC(=O)[C@@H](Cc3ccc(O)cc3)NC(=O)[C@H](CC(=O)O)NC(=O)CNC(=O)[C@H](CCCNC(=N)N)NC2=O)NC(=O)[C@@H](Cc2ccc(O)cc2)NC(=O)[C@H](CC(=O)O)NC(=O)CNC1=O` [gallium-68 labelled] gave a radiochemical purity of > 95% (HPLC; PBS; 4 h, room temperature).
The tissue uptake of `N=C(N)NCCC[C@@H]1NC(=O)[C@H](CCCCNC(=O)CNC(=O)CNC(=O)CNC(=O)CC[C@H](NC(=O)CNC(=O)CNC(=O)CNC(=O)CN2CCN(CC(=O)O)CCN(CC(=O)O)CCN(CC(=O)O)CC2)C(=O)NCC(=O)NCC(=O)NCC(=O)NCCCC[C@@H]2NC(=O)[C@@H](Cc3ccccc3)NC(=O)[C@H](CC(=O)O)NC(=O)CNC(=O)[C@H](CCCNC(=N)N)NC2=O)NC(=O)[C@@H](Cc2ccccc2)NC(=O)[C@H](CC(=O)O)NC(=O)CNC1=O` [indium-111 labelled] is reported as 6.72 ± 2.06 %ID/g (female athymic nu/nu mice, U87MG tumour; intravenous, 111 kBq, 4 h).
